# Results gathered from unrelated publications.
# Each numbered part is a random draw from the data of one study; scales do not carry over between parts. Positions count from the first letter of the parent shown.

# Study 1
# Target: Phosphate system positive regulatory protein PHO4, full length, GST-tagged (PHO4, Saccharomyces cerevisiae, UniProt P07270, residues 1-312)
# Technique: competition protein-binding microarray
# Form: double-stranded DNA, one strand shown
# Sample: in vitro
# Tested at: 2 µM
# Setting: whole 60-bp probe, lowest competitor level
# Added: Cbf1 competitor, 0.05 µM
# Direction: higher = stronger binding
# Constant ends, left off below: … GTCTTGATTCGCTTGACGCTGCTG
# Target sequence (chain): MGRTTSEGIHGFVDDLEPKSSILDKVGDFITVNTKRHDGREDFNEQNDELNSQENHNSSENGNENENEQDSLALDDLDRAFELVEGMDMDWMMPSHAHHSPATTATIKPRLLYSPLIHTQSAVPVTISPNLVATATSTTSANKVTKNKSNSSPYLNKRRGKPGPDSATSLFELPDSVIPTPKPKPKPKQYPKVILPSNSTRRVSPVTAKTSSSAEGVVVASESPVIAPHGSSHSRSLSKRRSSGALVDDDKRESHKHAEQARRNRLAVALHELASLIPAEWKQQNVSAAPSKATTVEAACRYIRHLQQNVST
Oligonucleotide,fluorescence intensity
AAACAATTGGACGGCCACGTGGCCGCTCATGTAAGG,18500 a.u.
AAAGCGGTAATTTGGAGCGTGGGTGCAGATATCTAT,8870 a.u.
AACGAAGAAAACGGCCACGTTAAACACTTTGTTAGG,7170 a.u.
TGCGCAACAACTTTTCACGTGGAGTTATGTCTAGAA,14000 a.u.
ACTCGGGTGTCCTGGCATGTGGGTCCAACAATGGTC,10800 a.u.
AAAGCGGTAATTTGCCACGTGTTTTCACATATCTAT,18600 a.u.

# Study 2
# Target: CCNE2, cyclin fold, Cln2 fusion (human)
# Technique: yeast growth competition, sequencing
# Sample: yeast
# Setting: strong parent motif
# Baseline: not given
# Direction: higher = stronger binding
# Parent: E2F1 docking peptide (human); PPVKRRLDLETDH; partner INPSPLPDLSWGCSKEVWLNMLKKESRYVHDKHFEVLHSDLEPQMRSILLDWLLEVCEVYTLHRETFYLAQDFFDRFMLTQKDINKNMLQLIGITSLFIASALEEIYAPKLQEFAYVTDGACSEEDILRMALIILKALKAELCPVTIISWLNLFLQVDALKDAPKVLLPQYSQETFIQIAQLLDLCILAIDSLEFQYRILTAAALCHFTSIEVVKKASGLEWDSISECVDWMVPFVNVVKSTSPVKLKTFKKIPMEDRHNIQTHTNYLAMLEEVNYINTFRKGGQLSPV
Variant,normalised enrichment score
H13Q,1.14
P2C,1.31
T11L,2.21

# Study 3
# Target: Histone acetyltransferase KAT6A, both winged helices, GST fusion (KAT6A, Homo sapiens, UniProt Q92794, residues 1-181)
# Technique: protein binding microarray
# Form: double-stranded DNA, one strand shown
# Sample: in vitro
# Tested at: not given
# Setting: 8-mer, flanks averaged, mean of 2 arrays, mostly near background
# Baseline: not given
# Direction: higher = stronger binding
# Construct (chain): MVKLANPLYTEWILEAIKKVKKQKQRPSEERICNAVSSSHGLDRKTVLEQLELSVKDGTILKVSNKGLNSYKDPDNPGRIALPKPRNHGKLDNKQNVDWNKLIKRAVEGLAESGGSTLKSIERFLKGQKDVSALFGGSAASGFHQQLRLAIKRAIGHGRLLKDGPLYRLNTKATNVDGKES
Oligonucleotide,E-score
GTATAAAC,0.00793
CTACTAGC,-0.012
ACGTGGGA,-0.115
CAAGACTG,-0.207

# Single results of other studies
Molecule,target,test,test system,conditions,scale,endpoint,value
"PhoQ, residues 284 288 289 292 302 303 TNSAEL","PhoP, residues 12 14 15 18 19 NIMAP (Escherichia coli, UniProt P23836)","Sort-seq, refers to: YFP reporter",E. coli,"PhoQ-PhoP variant library, added: 10 µM Mg2+","baseline: high Mg2+ state, higher = stronger signaling",fold induction,0.752

# Excerpt of the above (study 3):
Oligonucleotide,E-score
CAAGACTG,-0.207
